Experimental data gathered from unrelated publications.
Parts stem from different laboratories: compare values within a part only.
Sequence of UniProt Q8IYT8 (whole entry, looked up): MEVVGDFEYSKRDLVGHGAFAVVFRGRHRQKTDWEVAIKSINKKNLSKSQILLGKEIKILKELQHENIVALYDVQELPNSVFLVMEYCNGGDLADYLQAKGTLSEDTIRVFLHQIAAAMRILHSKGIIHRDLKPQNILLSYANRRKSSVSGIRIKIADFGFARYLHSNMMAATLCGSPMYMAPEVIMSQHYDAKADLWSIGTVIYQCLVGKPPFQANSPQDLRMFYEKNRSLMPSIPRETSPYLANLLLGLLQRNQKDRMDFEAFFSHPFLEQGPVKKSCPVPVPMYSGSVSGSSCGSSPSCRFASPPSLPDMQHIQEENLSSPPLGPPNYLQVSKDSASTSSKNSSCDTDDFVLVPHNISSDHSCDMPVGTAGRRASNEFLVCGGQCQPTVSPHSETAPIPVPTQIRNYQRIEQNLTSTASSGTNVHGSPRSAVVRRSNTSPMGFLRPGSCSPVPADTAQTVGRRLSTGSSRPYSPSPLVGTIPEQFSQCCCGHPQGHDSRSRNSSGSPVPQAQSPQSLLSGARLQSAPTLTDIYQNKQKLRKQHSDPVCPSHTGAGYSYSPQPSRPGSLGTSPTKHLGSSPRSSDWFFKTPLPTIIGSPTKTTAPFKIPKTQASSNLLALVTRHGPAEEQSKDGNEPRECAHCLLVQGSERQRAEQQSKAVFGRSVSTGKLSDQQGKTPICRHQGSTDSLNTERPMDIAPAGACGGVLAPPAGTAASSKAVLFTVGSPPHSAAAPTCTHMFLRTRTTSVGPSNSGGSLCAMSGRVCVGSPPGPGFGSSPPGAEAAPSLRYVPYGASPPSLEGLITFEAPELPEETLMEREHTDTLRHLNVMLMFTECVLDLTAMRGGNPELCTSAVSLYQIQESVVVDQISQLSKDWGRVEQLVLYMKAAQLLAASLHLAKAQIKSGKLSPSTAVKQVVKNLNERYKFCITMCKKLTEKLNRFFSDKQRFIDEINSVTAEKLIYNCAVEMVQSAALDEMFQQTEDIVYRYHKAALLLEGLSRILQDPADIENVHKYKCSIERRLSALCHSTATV
Sequence of UniProt Q9Y2H1 (whole entry, looked up): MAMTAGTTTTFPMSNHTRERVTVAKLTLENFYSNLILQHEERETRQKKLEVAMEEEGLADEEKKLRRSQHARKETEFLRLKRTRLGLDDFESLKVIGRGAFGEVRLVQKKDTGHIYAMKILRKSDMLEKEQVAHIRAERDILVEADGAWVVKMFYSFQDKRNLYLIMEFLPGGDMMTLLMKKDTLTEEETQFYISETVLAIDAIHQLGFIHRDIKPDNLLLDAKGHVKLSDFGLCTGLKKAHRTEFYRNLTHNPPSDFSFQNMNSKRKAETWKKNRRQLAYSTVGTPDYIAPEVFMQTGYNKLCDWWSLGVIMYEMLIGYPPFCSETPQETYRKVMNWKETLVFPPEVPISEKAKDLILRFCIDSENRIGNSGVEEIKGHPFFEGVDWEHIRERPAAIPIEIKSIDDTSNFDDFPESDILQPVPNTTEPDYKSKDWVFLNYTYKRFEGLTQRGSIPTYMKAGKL
Sequence of UniProt Q04912 (whole entry, looked up): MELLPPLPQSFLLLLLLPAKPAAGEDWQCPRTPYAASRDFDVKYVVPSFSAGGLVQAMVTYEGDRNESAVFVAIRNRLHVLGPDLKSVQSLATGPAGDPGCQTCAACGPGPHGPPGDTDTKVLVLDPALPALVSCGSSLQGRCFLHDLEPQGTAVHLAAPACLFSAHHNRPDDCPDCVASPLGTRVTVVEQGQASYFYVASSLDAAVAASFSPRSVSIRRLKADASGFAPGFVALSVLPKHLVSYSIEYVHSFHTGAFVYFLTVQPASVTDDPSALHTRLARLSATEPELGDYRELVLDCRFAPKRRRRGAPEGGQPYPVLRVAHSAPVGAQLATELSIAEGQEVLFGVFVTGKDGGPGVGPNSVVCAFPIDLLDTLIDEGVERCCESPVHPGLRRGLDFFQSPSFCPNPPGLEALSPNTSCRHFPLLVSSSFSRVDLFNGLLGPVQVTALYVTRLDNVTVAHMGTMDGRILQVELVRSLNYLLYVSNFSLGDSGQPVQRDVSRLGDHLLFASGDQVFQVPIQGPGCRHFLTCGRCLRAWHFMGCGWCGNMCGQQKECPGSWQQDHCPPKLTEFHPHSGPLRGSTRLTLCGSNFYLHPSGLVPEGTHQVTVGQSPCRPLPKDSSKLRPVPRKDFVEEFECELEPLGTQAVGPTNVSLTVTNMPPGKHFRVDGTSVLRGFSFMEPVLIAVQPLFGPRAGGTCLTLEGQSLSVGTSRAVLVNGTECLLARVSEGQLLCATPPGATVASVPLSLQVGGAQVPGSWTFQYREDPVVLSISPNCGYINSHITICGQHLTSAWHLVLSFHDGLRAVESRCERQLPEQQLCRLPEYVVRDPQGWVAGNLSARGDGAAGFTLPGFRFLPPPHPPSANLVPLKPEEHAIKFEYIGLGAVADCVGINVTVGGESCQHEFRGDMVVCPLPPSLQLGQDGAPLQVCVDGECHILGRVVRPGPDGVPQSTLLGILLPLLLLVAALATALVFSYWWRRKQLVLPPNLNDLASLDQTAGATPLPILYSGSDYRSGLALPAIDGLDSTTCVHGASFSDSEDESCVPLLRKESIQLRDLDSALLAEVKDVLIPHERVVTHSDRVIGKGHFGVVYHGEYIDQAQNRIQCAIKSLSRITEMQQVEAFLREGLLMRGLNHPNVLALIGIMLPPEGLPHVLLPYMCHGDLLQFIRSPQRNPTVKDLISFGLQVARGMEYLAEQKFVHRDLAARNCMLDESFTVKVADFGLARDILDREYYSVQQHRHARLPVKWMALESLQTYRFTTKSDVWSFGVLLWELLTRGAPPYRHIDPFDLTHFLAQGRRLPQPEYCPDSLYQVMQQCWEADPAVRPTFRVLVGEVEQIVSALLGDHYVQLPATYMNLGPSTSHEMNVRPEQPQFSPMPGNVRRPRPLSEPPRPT
Sequence of UniProt P49841 (whole entry, looked up): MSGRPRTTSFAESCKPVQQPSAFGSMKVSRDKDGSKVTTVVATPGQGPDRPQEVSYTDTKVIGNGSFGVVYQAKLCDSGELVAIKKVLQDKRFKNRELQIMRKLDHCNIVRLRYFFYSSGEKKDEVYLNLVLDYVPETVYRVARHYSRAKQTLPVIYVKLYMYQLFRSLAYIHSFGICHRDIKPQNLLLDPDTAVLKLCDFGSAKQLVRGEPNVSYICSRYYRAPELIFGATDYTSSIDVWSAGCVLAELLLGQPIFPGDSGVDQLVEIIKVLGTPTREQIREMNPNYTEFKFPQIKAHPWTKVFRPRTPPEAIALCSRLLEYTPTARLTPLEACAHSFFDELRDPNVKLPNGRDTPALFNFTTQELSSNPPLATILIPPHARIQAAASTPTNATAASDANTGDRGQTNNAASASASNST
Sequence of UniProt Q14164 (whole entry, looked up): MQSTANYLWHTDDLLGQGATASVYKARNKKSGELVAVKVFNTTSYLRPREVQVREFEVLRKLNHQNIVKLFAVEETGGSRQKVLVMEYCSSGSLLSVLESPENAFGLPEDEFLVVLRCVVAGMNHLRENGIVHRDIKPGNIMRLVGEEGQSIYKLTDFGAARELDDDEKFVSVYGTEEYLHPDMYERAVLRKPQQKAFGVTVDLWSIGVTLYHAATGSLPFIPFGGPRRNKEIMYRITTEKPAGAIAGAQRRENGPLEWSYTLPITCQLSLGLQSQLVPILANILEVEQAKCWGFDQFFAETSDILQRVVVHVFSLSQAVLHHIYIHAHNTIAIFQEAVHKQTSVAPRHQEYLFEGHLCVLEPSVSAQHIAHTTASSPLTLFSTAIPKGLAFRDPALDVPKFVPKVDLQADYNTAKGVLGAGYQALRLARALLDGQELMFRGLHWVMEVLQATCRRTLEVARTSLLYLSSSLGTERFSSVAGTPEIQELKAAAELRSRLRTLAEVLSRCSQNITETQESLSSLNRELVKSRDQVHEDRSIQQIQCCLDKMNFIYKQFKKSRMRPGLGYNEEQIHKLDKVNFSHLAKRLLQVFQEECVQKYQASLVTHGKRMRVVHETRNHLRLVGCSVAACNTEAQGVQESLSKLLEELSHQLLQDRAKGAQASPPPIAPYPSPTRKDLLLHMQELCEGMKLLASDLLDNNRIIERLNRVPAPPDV

Sample 1 — technique: universal PBM; molecule type: double-stranded DNA, one strand shown; matrix: in vitro; tested at: 600 nM; reading: higher = stronger binding
Target: Sal-like protein 4, full length isoform A (SALL4, Homo sapiens, UniProt Q9UJQ4, residues 1-1053)
Sequence of UniProt Q9UJQ4 (whole entry, looked up): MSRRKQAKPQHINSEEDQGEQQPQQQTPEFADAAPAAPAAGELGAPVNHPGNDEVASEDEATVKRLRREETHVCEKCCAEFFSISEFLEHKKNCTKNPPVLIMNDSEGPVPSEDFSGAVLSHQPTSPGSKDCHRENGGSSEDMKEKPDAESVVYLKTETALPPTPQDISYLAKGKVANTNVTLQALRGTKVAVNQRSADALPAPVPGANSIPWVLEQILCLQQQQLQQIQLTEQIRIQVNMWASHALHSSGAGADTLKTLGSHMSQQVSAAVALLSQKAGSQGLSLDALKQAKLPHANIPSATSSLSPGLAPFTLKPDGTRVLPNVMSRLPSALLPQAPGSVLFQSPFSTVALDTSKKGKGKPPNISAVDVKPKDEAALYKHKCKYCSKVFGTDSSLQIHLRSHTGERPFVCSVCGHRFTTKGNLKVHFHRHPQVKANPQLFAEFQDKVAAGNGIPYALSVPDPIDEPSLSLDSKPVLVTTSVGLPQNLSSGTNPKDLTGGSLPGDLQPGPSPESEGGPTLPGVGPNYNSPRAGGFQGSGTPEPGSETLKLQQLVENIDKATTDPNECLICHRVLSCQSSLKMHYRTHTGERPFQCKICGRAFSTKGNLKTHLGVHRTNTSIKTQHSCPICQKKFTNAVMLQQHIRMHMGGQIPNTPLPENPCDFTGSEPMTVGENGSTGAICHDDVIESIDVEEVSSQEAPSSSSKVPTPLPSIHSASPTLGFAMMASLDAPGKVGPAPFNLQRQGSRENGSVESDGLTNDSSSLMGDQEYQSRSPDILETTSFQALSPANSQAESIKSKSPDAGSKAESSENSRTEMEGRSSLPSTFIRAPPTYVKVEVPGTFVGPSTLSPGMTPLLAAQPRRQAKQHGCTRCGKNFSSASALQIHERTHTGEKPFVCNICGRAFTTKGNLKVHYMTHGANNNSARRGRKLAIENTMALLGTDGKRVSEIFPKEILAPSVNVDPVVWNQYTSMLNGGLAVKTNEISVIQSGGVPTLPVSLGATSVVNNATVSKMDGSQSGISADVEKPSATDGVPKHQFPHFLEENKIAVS
Notes: 8-mer, flanks averaged, mean of replicates
For `CACTCGGG`, the E-score was -0.311.
The E-score of `GTTGTGAA` is reported as 0.179.
With `AGGGGCTA` the E-score was -0.0783.
With `GGCTCCAC` the E-score was -0.277.
For `CATCTCAA`, the E-score was 0.276.
`AGAGGGAA` gave an E-score of -0.0585.
For `ACTGAGAT`, the E-score was 0.107.
With `AATACACT` the E-score was 0.323.

Sample 2 — read-out: cell-free assay; technique: competition with immobilised ligand; tested at: 1 µM
Structure (SMILES): CN(c1ccnc(CNc2nc(Nc3ccc4c(c3)CC(=O)N4)ncc2C(F)(F)F)n1)S(C)(=O)=O
It gave 22% for remaining binding (PKN2 (Homo sapiens, UniProt Q16513)).
The remaining binding was 15% (PRKX (Homo sapiens, UniProt P51817)).
For SGK2 (Homo sapiens, UniProt Q9HBY8): remaining binding read 75%.
For IKBKE (Homo sapiens, UniProt Q14164): remaining binding read 18%.
The remaining binding was 77% (ALK (Homo sapiens, UniProt Q9UM73, C1156Y)).
EIF2AK2 (Homo sapiens, UniProt P19525) — remaining binding: 82%.
The remaining binding was 86% (CDK14 (Homo sapiens, UniProt O94921)).
The remaining binding was 46% (ERBB4 (Homo sapiens, UniProt Q15303)).
The remaining binding was 69% (CAMKK2 (Homo sapiens, UniProt Q96RR4)).
CDK15 (Homo sapiens, UniProt Q96Q40) — remaining binding: 63%.
It gave 73% for remaining binding (PAK1 (Homo sapiens, UniProt Q13153)).
It gave 44% for remaining binding (KIT (Homo sapiens, UniProt P10721, D816H)).
Cyclin-dependent kinase 4, with cyclin D3 (CDK4, Homo sapiens, UniProt P11802) — remaining binding: 63%.
It gave 78% for remaining binding (FER (Homo sapiens, UniProt P16591)).
The remaining binding was 57% (EGFR (Homo sapiens, UniProt P00533, del747-752/P753S)).
For STK38L (Homo sapiens, UniProt Q9Y2H1): remaining binding read 75%.

Sample 3 — SMILES: c1ccc(-c2[nH]ncc2-c2ccnc3ccccc23)nc1; read-out: enzyme activity; mode: inhibitor; tested at: 0.5 µM; relative to: control
CSNK1G2 (Homo sapiens, UniProt P78368) — remaining activity: 103%.
The remaining activity was 91.7% (LCK (Homo sapiens, UniProt P06239)).
For JAK3 (Homo sapiens, UniProt P52333): remaining activity read 92.7%.
For MST1R (Homo sapiens, UniProt Q04912): remaining activity read 99.9%.
The remaining activity was 98.8% (TEK (Homo sapiens, UniProt Q02763)).
ULK2 (Homo sapiens, UniProt Q8IYT8) — remaining activity: 95.6%.
For ACVR1B (Homo sapiens, UniProt P36896): remaining activity read 43.2%.
ABL2 (Homo sapiens, UniProt P42684) — remaining activity: 67.8%.
For MERTK (Homo sapiens, UniProt Q12866): remaining activity read 92.6%.
The remaining activity was 95.2% (GSK3B (Homo sapiens, UniProt P49841)).
The remaining activity was 96% (CSNK1G3 (Homo sapiens, UniProt Q9Y6M4)).

Sample 4 — technique: RNA Bind-n-Seq; molecule type: RNA; matrix: in vitro; tested at: 20 nM; notes: 6-mer, flanks averaged, single round; added: 150 mM KCl; relative to: input library; reading: higher = stronger binding
Target: TAR DNA-binding protein 43, full length, His tag (TARDBP, Homo sapiens, UniProt Q13148, residues 1-414)
Under “6-mer enrichment (R)”, `AGGUAA` is recorded as 0.81.
For `UCGCAA`, “6-mer enrichment (R)” read 0.635.
`CAUAUC` — result for “6-mer enrichment (R)”: 0.548.
Under “6-mer enrichment (R)”, `GUGCCA` is recorded as 0.905.
`AUAGUC`: “6-mer enrichment (R)” 0.583.
For `GCUCCA`, “6-mer enrichment (R)” read 0.673.
Under “6-mer enrichment (R)”, `CCCAAG` is recorded as 0.739.
Under “6-mer enrichment (R)”, `UAGAAG` is recorded as 0.947.

Repeated from above (sample 2):
For SGK2 (Homo sapiens, UniProt Q9HBY8): remaining binding read 75%.
It gave 44% for remaining binding (KIT (Homo sapiens, UniProt P10721, D816H)).
EIF2AK2 (Homo sapiens, UniProt P19525) — remaining binding: 82%.
It gave 22% for remaining binding (PKN2 (Homo sapiens, UniProt Q16513)).
Cyclin-dependent kinase 4, with cyclin D3 (CDK4, Homo sapiens, UniProt P11802) — remaining binding: 63%.
